Published values collected from several papers.
Compare with care: the assays were run in different laboratories.

The inhibition of Nc1ncnc2c([C@@H]3N[C@H](CO)[C@@H](O)[C@H]3O)c[nH]c12 is reported as 5.6% (Marburg marburgvirus; viral RNA in supernatant; HeLa, Musoke; 0.8 µM, 1 h).
The responding donors of `GYKKPASRELKVTFF` is reported as 15% (human CD4 T cells; AIM; peptide).
With C[C@@H]1O[C@@H](O[C@H]2[C@H](O[C@H]3[C@H](O[C@H]4CC[C@@]5(C)[C@@H](CC[C@]6(C)[C@@H]5CC=C5[C@@H]7CC(C)(C)C[C@@H](O)[C@]7(C)CC[C@]56C)[C@@]4(C)CO)O[C@H](C(=O)O)[C@@H](O)[C@@H]3O)O[C@H](CO)[C@H](O)[C@@H]2O)[C@H](O)[C@H](O)[C@H]1O the inhibition was -0.767% (Replicase polyprotein 1ab, main protease (rep, Severe acute respiratory syndrome coronavirus 2, UniProt P0DTD1); reporter gene (Gaussia luciferase), inhibitor; 20 µM).
CC[C@H](C)[C@H](NC(=O)[C@H](CC(C)C)NC(=O)[C@H](Cc1c[nH]c2ccccc12)NC(=O)[C@H](CCC(N)=O)NC(=O)[C@@H](NC(=O)[C@H](Cc1ccccc1)NC(=O)[C@H](C)NC(=O)[C@H](CCCCNC(=O)COCCOCCNC(=O)COCCOCCNC(=O)CC[C@H](NC(=O)CCCCCCCCCCCCCCCCCCC(=O)O)C(=O)O)NC(=O)[C@H](CCC(N)=O)NC(=O)[C@H](C)NC(=O)[C@@H](NC(=O)[C@H](CCCCN)NC(=O)[C@H](CC(=O)O)NC(=O)[C@H](CC(C)C)NC(=O)C(C)(C)NC(=O)[C@@H](NC(=O)[C@H](CO)NC(=O)[C@H](Cc1ccc(O)cc1)NC(=O)[C@H](CC(=O)O)NC(=O)[C@H](CO)NC(=O)[C@@H](NC(=O)[C@H](Cc1ccccc1)NC(=O)[C@@H](NC(=O)CNC(=O)[C@H](CCC(=O)O)NC(=O)C(C)(C)NC(=O)[C@@H](N)Cc1ccc(O)cc1)[C@@H](C)O)[C@@H](C)O)[C@@H](C)CC)[C@@H](C)CC)C(C)C)C(=O)N[C@@H](C)C(=O)NCC(=O)NCC(=O)N1CCC[C@H]1C(=O)N[C@@H](CO)C(=O)N[C@@H](CO)C(=O)NCC(=O)N[C@@H](C)C(=O)N1CCC[C@H]1C(=O)N1CCC[C@H]1C(=O)N1CCC[C@H]1C(=O)N[C@@H](CO)C(N)=O gave a TEAE incidence of 16.7% (healthy subjects; 0.5 mg, Pyrexia, multiple ascending dose).
`QSASKIITL`: “frequency of responding donors” 33 (AIM; peptide, CD8+ T cells from PBMC, human donors; HLA-B*08:01 restricted, unit not given; baseline: positive over tested donors).

Repeated from above:
The responding donors of `GYKKPASRELKVTFF` is reported as 15% (human CD4 T cells; AIM; peptide).
